Published values collected from several papers.
Each line is one published result; not all experiments were run side by side. “And” joins repeats or separate records; there may be more than shown. ± marks the error that the study gave.
VIM-2: Metallo-beta-lactamase VIM-2 (VIM-2, Escherichia coli, UniProt Q5U7L7)
Alpha-galactosidase: Alpha-galactosidase (Coffea arabica, UniProt Q42656)
CA6: Carbonic anhydrase 6 (CA6, Homo sapiens, UniProt P23280)
Beta-lactamase CTX-M-27: Beta-lactamase CTX-M-27 (Escherichia coli, UniProt Q840M4)
BIRC3 BIR3: Baculoviral IAP repeat-containing protein 3, BIR3 (BIRC3, Homo sapiens, UniProt Q13489)
CA5A: Carbonic anhydrase 5A, mitochondrial (CA5A, Homo sapiens, UniProt P35218)
IDO1: Indoleamine 2,3-dioxygenase 1 (IDO1, Homo sapiens, UniProt P14902)
BIRC2 BIR3: Baculoviral IAP repeat-containing protein 2, BIR3 (BIRC2, Homo sapiens, UniProt Q13490)
NPY1R: Neuropeptide Y receptor type 1 (NPY1R, Homo sapiens, UniProt P25929)
CASP7: Caspase-7 (CASP7, Homo sapiens, UniProt P55210)

SMILES	tested on	test	test system	conditions	measurement	result
CN(C)c1ccc2c3c(cccc13)C(=O)N(CCS)C2=O	VIM-2	enzyme activity, inhibitor	–	Km 8 µM, added: chromacef 25 µM	Ki	0.027 ± 0.001 µM
CCC[C@H]1N[C@H](CO)[C@@H](O)[C@H](O)[C@H]1O	Alpha-galactosidase	enzyme activity, competitive inhibitor	–	green coffee bean enzyme, optimal pH, added: p-nitrophenyl glycopyranoside	Ki	> 2000 µM
COCCOc1cc2ncnc(Nc3cccc(-c4cn(Cc5ccc(C(=O)Nc6ccc(S(N)(=O)=O)cc6)cc5)nn4)c3)c2cc1OCCOC	CA6	enzyme activity, inhibitor, stopped-flow	–	–	Ki	2.6 µM
O=C(Nc1cccc(-c2nn[nH]n2)c1)c1cc(-c2cccs2)cc(C(F)(F)F)c1	Beta-lactamase CTX-M-27	enzyme activity, inhibitor, absorbance	–	pH 7	Ki	5.5 µM
O=C(O)c1ccc2nc(-c3ccc(OCCCCCCCCOc4ccc(-c5nc6ccc(C(=O)O)cc6[nH]5)cc4)cc3)[nH]c2c1	Dihydrofolate reductase type 2 (Escherichia coli, UniProt P00383)	enzyme activity, inhibitor	–	pH 7	Ki	2.1 ± 0.9 µM
CN[C@@H](C)C(=O)N[C@H]1CN(C(=O)Cc2ccccc2)CC[C@H]2CC[C@@H](C(=O)NCc3ccc(Br)cc3)N2C1=O	BIRC3 BIR3	ligand displacement, FP	–	–	Ki	0.0095 µM and < 0.01 µM
N=C(N)NCCC[C@@H]1NC(=O)[C@H](CCCCNC(=S)Nc2ccc(CC3CN(CC(=O)O)CCN(CC(=O)O)CCN(CC(=O)O)CCN3CC(=O)O)cc2)NC(=O)[C@@H](Cc2ccc(O)cc2)NC(=O)[C@H](CC(=O)O)NC(=O)CNC1=O (stereo partly shown) [actinium-225 labelled]	–	–	U-87 MG tumour-bearing mice	1 h	tumour to blood ratio	12
COCCOc1cc2ncnc(Nc3cccc(-c4cn(CC(=O)Nc5ccc(S(N)(=O)=O)cc5)nn4)c3)c2cc1OCCOC	CA5A	enzyme activity, inhibitor, stopped-flow	–	–	Ki	0.0083 µM
CN[C@@H](C)C(=O)N[C@H]1CN(C(=O)Cc2ccccc2)CC[C@H]2CC[C@@H](C(=O)NCc3ccc(OC)cc3)N2C1=O	BIRC3 BIR3	ligand displacement, FP	–	–	Ki	0.0473 µM
O=C(c1ccc(F)cc1)C1CCN(C2Cc3c(O)cccc3CC2O)CC1 (single isomer, unassigned; (+))	sigma-2 receptor	radioligand binding	–	added: [3H]DTG	Ki	> 10 µM
C[C@@H]1O[C@@H](OCc2cc(O)c3c(c2)[C@H]([C@@H]2OC[C@@H](O)[C@H](O)[C@H]2O)c2cccc(O)c2C3=O)[C@H](O)[C@H](O)[C@H]1O	IDO1	uncompetitive inhibitor, Lineweaver-Burk plot	–	–	Ki	65.3 µM
Cc1cc(N)nc(C[C@@H]2CNC[C@@H]2OCCCCCc2cc(F)cc(Cl)c2)c1	NOS3 (Bos taurus, UniProt P29473)	enzyme activity, inhibitor	–	pH 7.4	Ki	35.6 µM
CN[C@@H](C)C(=O)N[C@H]1CN(C(=O)Cc2ccccc2)CC[C@H]2CC[C@@H](C(=O)NCc3ccc(C(N)=O)cc3)N2C1=O	BIRC2 BIR3	ligand displacement, FP	–	–	Ki	0.274 µM
CNC(=O)C(CS)N1C(=O)c2ccc(N(C)C)cc2C1=O (stereo not shown)	VIM-2	enzyme activity, inhibitor	–	Km 8 µM, added: chromacef 25 µM	Ki	0.56 ± 0.05 µM
CN[C@@H](C)C(=O)N[C@H]1CN(C(=O)Cc2ccccc2)CC[C@H]2CC[C@@H](C(=O)NCc3ccc(C(F)(F)F)cc3)N2C1=O	BIRC3 BIR3	ligand displacement, FP	–	–	Ki	0.0246 µM
CC(C)CN(NC(=O)[C@H](CCCNC(=N)N)NC(=O)[C@H](Cc1ccc(O)cc1)NC(=O)CCCCCCC(=O)N[C@@H](Cc1ccc(O)cc1)C(=O)N[C@@H](CCCNC(=N)N)C(=O)NN(CC(C)C)C(=O)N[C@@H](CCCNC(=N)N)C(=O)N[C@@H](Cc1ccc(O)cc1)C(N)=O)C(=O)N[C@@H](CCCNC(=N)N)C(=O)N[C@@H](Cc1ccc(O)cc1)C(N)=O	NPY1R	ligand displacement, radioligand	–	–	Ki	0.574 µM
CCC(=O)NCCCCNC(=O)NCc1ccc(CNC(=O)[C@@H](CCCNC(=N)N)NC(=O)C(c2ccccc2)c2ccccc2)cc1	NPY1R	ligand displacement, radioligand	–	cell membranes	Ki	0.028 µM and 0.025 µM
CN[C@@H](C)C(=O)N[C@H]1CN(C(=O)Cc2ccccc2)CC[C@H]2CC[C@@H](C(=O)NCc3cccc(C(F)(F)F)c3)N2C1=O	BIRC3 BIR3	ligand displacement, FP	–	–	Ki	0.0895 µM
CNC(=O)C1CCN(c2cc(C)c(F)cc2NC(=O)c2ccc(-c3cc(O)ccc3C)c(C)c2)CC1	EPHA5 (Homo sapiens, UniProt P54756)	cell-free assay, TR-FRET	–	–	Ki	0.001 µM
CC(=O)N[C@@H](Cc1c[nH]c2ccccc12)C(=O)N[C@@H](CC(=O)O)C(=O)N[C@@H](CCCNC(=N)N)C(=O)N[C@@H](C)C(=O)N[C@H](C=O)CC(=O)O	CASP7	enzyme activity, inhibitor, fluorescence	–	pH 7	Ki	0.148 µM
CCc1ccc(CNC(=O)[C@@H]2CC[C@@H]3CCN(C(=O)Cc4ccccc4)C[C@H](NC(=O)[C@H](C)NC)C(=O)N32)cc1	BIRC3 BIR3	ligand displacement, FP	–	–	Ki	0.022 µM
CCCC/N=C1/SC[C@@H]2[C@@H](O)[C@H](O)[C@@H](O)[C@@H](CCC)N12	Alpha-galactosidase	enzyme activity, competitive inhibitor	–	green coffee bean enzyme, optimal pH, added: p-nitrophenyl glycopyranoside	Ki	> 2000 µM

SMILES	tested on	test	test system	conditions	measurement	result
Cc1cc(O)c2c(c1)[C@H]([C@@H]1O[C@H](CO)[C@@H](O)[C@H](O)[C@H]1O)c1cccc(O)c1C2=O	IDO1	uncompetitive inhibitor, Lineweaver-Burk plot	–	–	Ki	80.3 µM
CCN(CC)c1ccc(CNC(=O)[C@@H]2CC[C@@H]3CCN(C(=O)Cc4ccccc4)C[C@H](NC(=O)[C@H](C)NC)C(=O)N32)cc1	BIRC2 BIR3	ligand displacement, FP	–	–	Ki	0.148 µM
C=C1C(=O)O[C@@H]2[C@H]3C(CO)=CC(=O)C3=C(C)C[C@H](OC(=O)Cc3ccc(O)cc3)[C@@H]12	MAL12 (Saccharomyces cerevisiae S288c, UniProt P53341)	enzyme activity, inhibitor	–	–	Ki	27.8 µM
CC(=O)N[C@@H](CC(=O)O)C(=O)N[C@H](C(=O)N1CCC[C@H]1C(=O)N[C@H](C=O)CC(=O)O)C(C)C	CASP7	enzyme activity, inhibitor, fluorescence	–	pH 7	Ki	0.0182 µM
COc1cc(CNC(=O)C[C@H](C)CCC=C(C)C)ccc1OCc1cn(-c2ccccc2F)nn1	MDA-MB-468 breast cancer cells	SRB	–	10 µM, 48 h	growth percent	57.7%
O=C(Nc1cccc(-c2nn[nH]n2)c1)c1cc(-c2ncccn2)cc(C(F)(F)F)c1	Beta-lactamase CTX-M-27	enzyme activity, inhibitor, absorbance	–	pH 7	Ki	2.26 µM
CNCc1c(OCc2ccc(F)cc2)ccc2ccccc12	SLC6A2 (Homo sapiens, UniProt P23975)	ligand displacement in cells, radioligand	–	–	Ki	0.613 µM
Nc1nccc(-n2cc(C(=O)N[C@H]3CCCNC3)c3ccc(C#CC4(O)CCCCC4)cc32)n1	PAK4 (Homo sapiens, UniProt O96013)	cell-free assay, inhibitor, TR-FRET	–	–	Ki	0.0482 µM
COc1cc(CNC(=O)C[C@H](C)CCC=C(C)C)ccc1O	HCC 2998	SRB	–	10 µM, 48 h	growth percent	108%
COCCOc1cc2ncnc(Nc3cccc(-c4cn(CC(=O)Nc5cccc(S(N)(=O)=O)c5)nn4)c3)c2cc1OCCOC	CA6	enzyme activity, inhibitor, stopped-flow	–	–	Ki	0.099 µM
O=C(Nc1cccc(-c2nn[nH]n2)c1)c1cc(-n2cccn2)cc(C(F)(F)F)c1	Beta-lactamase CTX-M-27	enzyme activity, inhibitor, absorbance	–	pH 7	Ki	2.81 µM
CN[C@@H](C)C(=O)N[C@H]1CN(C(=O)Cc2ccccc2)CC[C@H]2CC[C@@H](C(=O)NCc3cccc(Cl)c3)N2C1=O	BIRC3 BIR3	ligand displacement, FP	–	–	Ki	0.0397 µM
CCCCCCCCNC(=S)N1[C@H](CCC)[C@H](O)[C@@H](O)[C@H](O)[C@H]1CO	Alpha-galactosidase	enzyme activity, competitive inhibitor	–	green coffee bean enzyme, optimal pH, added: p-nitrophenyl glycopyranoside	Ki	> 2000 µM
COC1=Cc2c(cc(O)c3cc(C)c(OC)cc23)C(C)(C)C1=O	IDO1	enzyme activity, inhibitor	–	added: L-tryptophan 7.5 to 30 µM	Ki	6.9 µM
CSCC[C@H](NC(=O)[C@H](Cc1c[nH]c2ccccc12)NC(=O)CNC(=O)[C@H](Cc1ccc(O)cc1)NC(=O)[C@H](C)NC(=O)[C@H](CCC(=O)O)NC(=O)[C@H](CCC(=O)O)NC(=O)[C@H](CCC(=O)O)NC(=O)[C@H](CCC(=O)O)NC(=O)[C@H](CCC(=O)O)NC(=O)[C@@H](CCC(=O)O)NC(=O)CN1CCN(CC(=O)O)CCN(CC(=O)O)CCN(CC(=O)O)CC1)C(=O)N[C@@H](CC(=O)O)C(=O)N[C@@H](Cc1ccccc1)C(N)=O [gallium-68 labelled]	–	–	BALB/c nude mice, AR-42J xenograft	intravenous, 0.25 µg, 370 kBq, 1 h	tumour uptake	4.4 ± 1.3 %ID/g
CCC[C@@H]1[C@H](O)[C@@H](O)[C@H](O)[C@@H](CO)N1C(=S)NCc1ccc(OC)cc1	Alpha-galactosidase	enzyme activity, competitive inhibitor	–	green coffee bean enzyme, optimal pH, added: p-nitrophenyl glycopyranoside	Ki	> 2000 µM
Cc1ccc(-c2nc3ccccc3[nH]2)cc1NC(=O)COc1ccccc1Cl	PPXII (Nicotiana tabacum, UniProt O24164)	enzyme activity, inhibitor, fluorescence	–	–	Ki	2.99 µM
N=C(N)NCCC[C@@H]1NC(=O)[C@H](CCCCNC(=O)CNC(=O)CNC(=O)CNC(=O)CC[C@H](NC(=O)CNC(=O)CNC(=O)CNC(=O)CN2CCN(CC(=O)O)CCN(CC(=O)O)CCN(CC(=O)O)CC2)C(=O)NCC(=O)NCC(=O)NCC(=O)NCCCC[C@@H]2NC(=O)[C@@H](Cc3ccccc3)NC(=O)[C@H](CC(=O)O)NC(=O)CNC(=O)[C@H](CCCNC(=N)N)NC2=O)NC(=O)[C@@H](Cc2ccccc2)NC(=O)[C@H](CC(=O)O)NC(=O)CNC1=O [indium-111 labelled]	–	–	female athymic nu/nu mice, brain	intravenous, 24 h	tissue uptake	0.05 ± 0.01 %ID/g
CC[C@H](C)[C@H](NC(=O)[C@@H]1CSSC[C@H](NC(=O)[C@H](Cc2ccc(O)cc2)NC(=O)CN)C(=O)N[C@@H](CO)C(=O)N[C@@H](CCCNC(=N)N)C(=O)N[C@@H](CO)C(=O)N[C@@H](Cc2ccc(O)cc2)C(=O)N2CCC[C@H]2C(=O)N2CCC[C@H]2C(=O)N[C@@H](C(C)C)C(=O)N1)C(=O)N1CCC[C@H]1C(=O)N[C@@H](CC(=O)O)C(=O)O	Mannan-binding lectin serine protease 2 (Homo sapiens, UniProt O00187)	enzyme activity, inhibitor	–	–	Ki	0.21 µM
COCCOc1cc2ncnc(Nc3cccc(-c4cn([C@H]5C[C@H](n6cc(C)c(=O)[nH]c6=O)O[C@@H]5CO)nn4)c3)c2cc1OCCOC	CA5A	enzyme activity, inhibitor, stopped-flow	–	–	Ki	0.145 µM
O=C(/C=C/c1ccc(O)c(O)c1)N[C@@H](Cc1ccccc1)C(=O)NCCCOc1c(-c2ccc(O)c(O)c2)oc2cc(O)cc(O)c2c1=O	Pancreatic alpha-amylase (Homo sapiens, UniProt P04746)	inhibitor	–	pH 7	Ki	2.8 ± 0.4 µM

Excerpt of the above:
SMILES	tested on	test	test system	conditions	measurement	result
CNC(=O)C1CCN(c2cc(C)c(F)cc2NC(=O)c2ccc(-c3cc(O)ccc3C)c(C)c2)CC1	EPHA5 (Homo sapiens, UniProt P54756)	cell-free assay, TR-FRET	–	–	Ki	0.001 µM
CNCc1c(OCc2ccc(F)cc2)ccc2ccccc12	SLC6A2 (Homo sapiens, UniProt P23975)	ligand displacement in cells, radioligand	–	–	Ki	0.613 µM
O=C(Nc1cccc(-c2nn[nH]n2)c1)c1cc(-n2cccn2)cc(C(F)(F)F)c1	Beta-lactamase CTX-M-27	enzyme activity, inhibitor, absorbance	–	pH 7	Ki	2.81 µM
O=C(O)c1ccc2nc(-c3ccc(OCCCCCCCCOc4ccc(-c5nc6ccc(C(=O)O)cc6[nH]5)cc4)cc3)[nH]c2c1	Dihydrofolate reductase type 2 (Escherichia coli, UniProt P00383)	enzyme activity, inhibitor	–	pH 7	Ki	2.1 ± 0.9 µM
Nc1nccc(-n2cc(C(=O)N[C@H]3CCCNC3)c3ccc(C#CC4(O)CCCCC4)cc32)n1	PAK4 (Homo sapiens, UniProt O96013)	cell-free assay, inhibitor, TR-FRET	–	–	Ki	0.0482 µM
